Results collected from several papers.
Lines come from different studies, so protocols differ.
Target: Serine/threonine-protein kinase pim-3 (PIM3, Homo sapiens, UniProt Q86V86)

The remaining activity of `COc1ccc(NC(=O)Nc2ccc3c(c2)C(=O)N(C(C)CO)CC(C)C(CN(C)Cc2ccc4c(c2)OCO4)O3)cc1` (centres unmarked) is reported as 103% (kinase activity, KinaseProfiler; 0.03 µM, species human; relative to: control).
`Cc1ccc(C)c(-c2ccc3nc(NC(=O)C4CCCCC4)nn3c2)c1` gave a remaining activity of 78% (enzyme activity, Dundee kinase panel; 10 µM).
`C=CC(=O)N1CCCC(n2c(=O)c3ncccc3n(Cc3ccc(Oc4ccccc4)cc3)c2=O)C1` (centres unmarked) gave a remaining binding of 93% (cell-free assay, competition with immobilised ligand; 1 µM).
The inhibition of `CN1CCN(Cc2ccc(-c3ccc(CO[C@H]4CCC[C@@H]4NC(=O)c4cc(-c5cnn(C)c5)cnc4N)cc3)cc2)CC1` is reported as 2% (enzyme activity, inhibitor; 0.1 µM).
With `CCn1cc(C(=O)O)c(=O)c2c(N)c(F)c(NC3CCCCC3)cc21` the inhibition was greater than 50% (enzyme activity, inhibitor; 0.1 µM).
`Nc1nc(Nc2ccccc2)sc1C(=O)c1ccccc1` gave a remaining activity of 32% (enzyme activity, inhibitor; 10 µM).
`Cc1cccc(-c2ccc3nc(NC(=O)C4CCCO4)nn3c2)c1` (centres unmarked) has a remaining activity of 91% (enzyme activity, Dundee kinase panel; 10 µM).
The remaining binding of `CNC1C[S+]2CC[S+]3CC[S+](C1)[Ru-4]321([N]=C=S)[n]2c3ccc(OC)cc3c3c4c(c5cc(F)c[n+]1c5c32)C(=O)NC4=O` (centres unmarked) is reported as 5.6% (KinomeScan; 0.1 µM; relative to: untreated).
`Cc1cccc(O[C@H]2CCC[C@@H](C(C)CNCc3ccncc3)C2)c1` (relative stereo) has an inhibition of 0% (enzyme activity, inhibitor; 1 µM).
`CC(C)=CC1OC(C)(C)C2C=C3C(=O)C(Cl)=CC(O)C3C3C(O)C4OC4C(=O)C132` (centres unmarked) gave a remaining binding of 95% (cell-free assay, competition with immobilised ligand; 10 µM).
`CNC(=O)C1CCN(c2cc(C)c(F)cc2NC(=O)c2ccc(-c3cc(O)ccc3C)c(C)c2)CC1` gave a remaining binding of 47% (binding, competition with immobilised ligand; 1 µM).
`O=C(Cc1ccc(OCc2ccccc2)cc1)NC1(C(=O)O)CCN(C(=O)c2ccc(-c3cccc(Cl)c3)cc2)CC1` — result for “activity vs control”: 87% (enzyme activity, inhibitor; 10 µM).
With `CC(=O)N1c2ccc(-c3ccc(CNC(=O)c4cn5cc(-c6cnc(N)nc6)nc(N6CCOCC6)c5n4)cc3)cc2CC[C@@H]1C` the remaining binding was 99% (KINOMEscan; 10 µM).
For `CN1CCN(Cc2ccc(NC(=O)c3cccc(C#Cc4cnc(N)c5ncccc45)c3)cc2C(F)(F)F)CC1`, the remaining binding was 81% (cell-free assay, competition with immobilised ligand; 50 nM).
The remaining binding of `COc1cc(Nc2nccc(-c3cnn4nc(OC)ccc34)n2)cc(C(F)(F)F)c1` is reported as 93% (binding, competition with immobilised ligand; 1 µM).
`C=CC(=O)N1CCc2ccc(-n3c(=O)ccc4cnc5ccc(-c6cnn(C)c6)cc5c43)cc21` has a remaining binding of 100% (KINOMEscan; 1 µM; relative to: DMSO control).
With `Cc1cnc2nc1Nc1cccc(c1)COC/C=C/COCc1cc(ccc1OCCN1CCOCC1)N2` the remaining binding was 99% (binding; 0.1 µM).
With `COc1c(OCCCN2CCOCC2)ccc2c1N=C(NC(=O)c1cnc(N)nc1)N1CCN=C21` the remaining activity was 103% (kinase activity, inhibitor; 1 µM; relative to: untreated control).
For `NC(=O)C[C@H]1CCc2sc3ncnc(O[C@H]4CC[C@H](N5CCOCC5)CC4)c3c21`, the inhibition was 2% (enzyme activity, inhibitor; 10 µM).
For `C=CC(=O)Nc1cccc(-c2cnc3[nH]cc(C(=O)NC(C)(C)C)c3n2)c1`, the inhibition was -1% (enzyme activity, inhibitor; 0.1 µM).

For quick reference, copied from above:
The inhibition of `CN1CCN(Cc2ccc(-c3ccc(CO[C@H]4CCC[C@@H]4NC(=O)c4cc(-c5cnn(C)c5)cnc4N)cc3)cc2)CC1` is reported as 2% (enzyme activity, inhibitor; 0.1 µM).
